{"data": "Measured values gathered from unrelated publications", "rep main protease": "Replicase polyprotein 1ab, main protease (rep, Severe acute respiratory syndrome coronavirus 2, UniProt P0DTD1)", "cya": "Calmodulin-sensitive adenylate cyclase (cya, Bacillus anthracis, UniProt P40136)", "Spike glycoprotein": "Spike glycoprotein (Severe acute respiratory syndrome coronavirus 2, UniProt P0DTC2)", "note": "Each line is one published result; not all experiments were run side by side. Numbers after ± are the reported error."}
{"Structure (SMILES)": "CCCCc1ccc(C(=O)O)nc1", "system": "Sprague-Dawley rat, serum", "conditions": "oral gavage, 25 mg/kg", "quantity": "Cmax", "result": "52 ± 11 µg/mL"}
{"Structure (SMILES)": "CC[C@H](C)[C@H](NC(=O)[C@H](CO)NC(=O)[C@@H]1CCCN1C(=O)[C@H](CO)NC(=O)[C@@H](N)CCSC)C(=O)N[C@@H](CC(C)C)C(=O)N[C@@H](CCCCN)C(=O)N[C@@H](Cc1c[nH]cn1)C(=O)N[C@@H](Cc1c[nH]c2ccccc12)C(=O)N[C@@H](CO)C(=O)N[C@@H](CCCNC(=N)N)C(=O)N[C@@H](CCC(N)=O)C(=O)NCC(=O)NCC(=O)NCC(=O)N[C@@H](CCCCN)C(=O)N[C@@H](CC(C)C)C(=O)N[C@@H](CCCCN)C(=O)N[C@@H](CCCCN)C(=O)N[C@@H](CC(C)C)C(=O)N[C@@H](CC(C)C)C(=O)N[C@@H](CC(C)C)C(=O)NCC(=O)N[C@@H](CC(C)C)C(=O)N[C@@H](CC(C)C)C(=O)N[C@@H](CC(C)C)C(=O)N[C@@H](CCCCN)C(=O)N[C@@H](CCCCN)C(=O)O", "target or system": "HEK-293T", "test": "cell death", "conditions": "24 h, 10% cell death", "quantity": "lowest cytotoxic concentration", "result": "64 µg/mL"}
{"Structure (SMILES)": "CC[C@@H](Oc1nc(Oc2cccc(-c3cccc(CN)c3)c2)c(F)cc1F)C(=O)O", "target or system": "rep main protease", "test": "viral replication, Gluc reporter", "system": "SARS-CoV-2", "conditions": "20 µM", "quantity": "inhibition", "result": "1.49%"}
{"Structure (SMILES)": "Nc1ncnc2c1c(-c1ccccn1)cn2CCOCP(=O)(O)OP(=O)(O)OP(=O)(O)O.[Na+].[Na+].[Na+].[Na+]", "target or system": "cya", "test": "enzyme activity, inhibitor", "quantity": "potency relative to reference", "result": "~4 fold less potent"}
{"Structure (SMILES)": "O=C(NC[C@H](NC(=O)c1cncc2ccccc12)c1ccc2ccccc2c1)c1cccnc1", "target or system": "rep main protease", "test": "enzyme activity, inhibitor", "conditions": "5 µM, run 1", "quantity": "inhibition", "result": "12.6%"}
{"Structure (SMILES)": "CNC(=O)[C@@H](NC(=O)[C@H](CC(C)C)[C@H](O)C(=O)NO)C(C)(C)C", "target or system": "Daboia russelii venom proteases (SVMP)", "test": "protease activity, inhibitor", "system": "KL population", "conditions": "0.001 µM, together with: azocasein substrate", "scale": "baseline: venom alone", "quantity": "remaining activity", "result": "100%"}
{"Structure (SMILES)": "Cc1cc(C)c(/C=C2/C(=O)Nc3ccc(Cl)cc32)[nH]1", "target or system": "rep main protease", "test": "viral replication, mKate2 reporter", "system": "SARS-CoV-2", "conditions": "20 µM", "quantity": "inhibition", "result": "-0.959%"}
{"Structure (SMILES)": "Nc1ncnc2c([C@@H]3N[C@H](CO)[C@@H](O)[C@H]3O)c[nH]c12", "target or system": "Marburg virus", "test": "viral replication", "system": "HeLa, Angola", "conditions": "12.5 µM", "quantity": "inhibition", "result": "90.4%"}
{"Structure (SMILES)": "C[C@@H]1O[C@@H](O[C@H]2[C@H](O[C@H]3CC[C@@]4(C)[C@@H](CC[C@]5(C)[C@@H]4CC=C4[C@@H]6CC(C)(C)CC[C@]6(C(=O)O[C@@H]6O[C@H](CO[C@@H]7O[C@H](CO)[C@@H](O[C@@H]8O[C@@H](C)[C@H](O)[C@@H](O)[C@H]8O)[C@H](O)[C@H]7O)[C@@H](O)[C@H](O)[C@H]6O)CC[C@]45C)[C@]3(C)CO)OC[C@H](O)[C@@H]2O)[C@H](O)[C@H](O)[C@H]1O", "target or system": "Spike glycoprotein", "test": "binding, biolayer interferometry", "quantity": "kon", "result": "243 M⁻¹ s⁻¹"}
{"Structure (SMILES)": "Cn1cnc(Cn2c(=O)[nH]/c(=N\\c3cc4cn(C)nc4cc3Cl)n(Cc3cc(F)c(F)cc3F)c2=O)n1", "system": "human, moderate renal impairment", "conditions": "oral, 375 mg, decreased GFR TEAE, severe severity", "quantity": "patients with adverse event", "result": "0%"}
{"Structure (SMILES)": "CC[C@H](C)[C@H](NC(=O)[C@@H]1CCCN1C(=O)[C@H](C)NC(=O)[C@@H]1CSSC[C@@H]2NC(=O)[C@H](CC(=O)O)NC(=O)[C@H](CCCNC(=N)N)NC(=O)[C@H](CCC(=O)O)NC(=O)[C@H](CCCNC(=N)N)NC(=O)CNC(=O)[C@H](CC(=O)O)NC(=O)[C@@H]3CSSC[C@H](NC(=O)[C@H](CCC(=O)O)NC(=O)[C@H](CC(C)C)NC(=O)CNC(=O)[C@H](C)NC(=O)[C@H](CSSC[C@H](NC(=O)[C@H](Cc4ccccc4)NC(=O)[C@@H](N)CO)C(=O)N[C@@H](CC(C)C)C(=O)N[C@@H](C(C)C)C(=O)N[C@@H](CCCCN)C(=O)N[C@@H](Cc4c[nH]c5ccccc45)C(=O)N[C@@H](CCCCN)C(=O)N[C@@H](CCC(N)=O)C(=O)N3)NC2=O)C(=O)N[C@@H](Cc2c[nH]c3ccccc23)C(=O)N[C@@H](CCCCN)C(=O)N[C@@H](CCCNC(=N)N)C(=O)N[C@@H](CO)C(=O)N[C@@H](CCCNC(=N)N)C(=O)N[C@@H](CC(N)=O)C(=O)N[C@@H](CCCCN)C(=O)N[C@@H](CO)C(=O)N[C@@H](CO)C(=O)N[C@@H](C(C)C)C(=O)N1)C(=O)N[C@H](C(=O)O)[C@@H](C)O", "target or system": "Acid-sensing ion channel 1 (ASIC1, Homo sapiens, UniProt P78348)", "test": "outside-out patch clamp", "system": "HEK-293T ASIC1a knockout", "conditions": "1 µM, pH 6", "quantity": "remaining peak response", "result": "86 ± 3%"}
{"Structure (SMILES)": "Nc1cc(OCCNC(=O)c2ccc(S(=O)(=O)F)cc2)ccn1", "target or system": "cya", "quantity": "kinact", "result": "0.000467 s⁻¹"}
{"Structure (SMILES)": "Cc1nc(C(=O)N2CC[C@@H]([C@@H]3CCCN3C(=O)c3cc(C)c4n[nH]nc4c3)C2)cc(=O)[nH]1", "target or system": "rep main protease", "test": "enzyme activity, inhibitor", "conditions": "5 µM", "quantity": "inhibition", "result": "8.1%"}
{"Structure (SMILES)": "CC[C@H](C)[C@H](NC(=O)[C@H](CC(C)C)NC(=O)[C@H](Cc1c[nH]c2ccccc12)NC(=O)[C@H](CCC(N)=O)NC(=O)[C@@H](NC(=O)[C@H](Cc1ccccc1)NC(=O)[C@H](C)NC(=O)[C@H](CCCCNC(=O)COCCOCCNC(=O)COCCOCCNC(=O)CC[C@H](NC(=O)CCCCCCCCCCCCCCCCCCC(=O)O)C(=O)O)NC(=O)[C@H](CCC(N)=O)NC(=O)[C@H](C)NC(=O)[C@@H](NC(=O)[C@H](CCCCN)NC(=O)[C@H](CC(=O)O)NC(=O)[C@H](CC(C)C)NC(=O)C(C)(C)NC(=O)[C@@H](NC(=O)[C@H](CO)NC(=O)[C@H](Cc1ccc(O)cc1)NC(=O)[C@H](CC(=O)O)NC(=O)[C@H](CO)NC(=O)[C@@H](NC(=O)[C@H](Cc1ccccc1)NC(=O)[C@@H](NC(=O)CNC(=O)[C@H](CCC(=O)O)NC(=O)C(C)(C)NC(=O)[C@@H](N)Cc1ccc(O)cc1)[C@@H](C)O)[C@@H](C)O)[C@@H](C)CC)[C@@H](C)CC)C(C)C)C(=O)N[C@@H](C)C(=O)NCC(=O)NCC(=O)N1CCC[C@H]1C(=O)N[C@@H](CO)C(=O)N[C@@H](CO)C(=O)NCC(=O)N[C@@H](C)C(=O)N1CCC[C@H]1C(=O)N1CCC[C@H]1C(=O)N1CCC[C@H]1C(=O)N[C@@H](CO)C(N)=O", "test": "measured: treatment-emergent medical device site pruritus", "system": "healthy subjects", "conditions": "4.5 mg, multiple ascending dose", "quantity": "subjects with adverse event", "result": "0%"}
{"Structure (SMILES)": "O=C(NC[C@H]1CC2(CCC2)CN1C(=O)Cc1ccccc1O)c1ccc2c(c1)CCNC2=O", "target or system": "rep main protease", "test": "enzyme activity, inhibitor", "conditions": "5 µM, mean of runs", "quantity": "inhibition", "result": "16.3%"}
{"Structure (SMILES)": "CC(C)(CC(=O)N1CCCC1)NCC(=O)N1C[C@@H](F)C[C@H]1C#N", "target or system": "rep main protease", "test": "reporter gene (mKate2), inhibitor", "conditions": "20 µM", "quantity": "inhibition", "result": "-0.475%"}
{"Structure (SMILES)": "O=C(NC[C@H](NC(=O)c1cncc2c1CCNC2=O)c1ccc2ccccc2c1)c1ccon1", "target or system": "rep main protease", "test": "enzyme activity, inhibitor", "conditions": "5 µM, run 2", "quantity": "inhibition", "result": "9.9%"}
{"Structure (SMILES)": "COc1ccc2c(O[C@@H]3C[C@H]4C(=O)N[C@]5(C(=O)NS(=O)(=O)C6CC6)C[C@H]5/C=C\\CCCCN(C)C(=O)[C@@H]4C3)cc(-c3nc(C(C)C)cs3)nc2c1C", "target or system": "rep main protease", "test": "reporter gene (mKate2), inhibitor", "conditions": "20 µM", "quantity": "inhibition", "result": "-1.19%"}
{"Structure (SMILES)": "COc1cc2c3cc1Oc1c(OC)c(OC)cc4c1[C@@H](Cc1ccc(O)c(c1)Oc1ccc(cc1)C[C@@H]3N(C)CC2)N(C)CC4", "target or system": "Spike glycoprotein", "test": "binding, BLI", "quantity": "kon", "result": "89.8 M⁻¹ s⁻¹"}
{"note": "A few entries again:"}
{"Structure (SMILES)": "Cn1cnc(Cn2c(=O)[nH]/c(=N\\c3cc4cn(C)nc4cc3Cl)n(Cc3cc(F)c(F)cc3F)c2=O)n1", "system": "human, moderate renal impairment", "conditions": "oral, 375 mg, decreased GFR TEAE, severe severity", "quantity": "patients with adverse event", "result": "0%"}
